Measurements gathered from unrelated publications.
± marks the error that the study gave.
U2AF2: U2AF2 148-342 (Homo sapiens, UniProt P26368)
UniProt P26368, sequence (whole entry, looked up): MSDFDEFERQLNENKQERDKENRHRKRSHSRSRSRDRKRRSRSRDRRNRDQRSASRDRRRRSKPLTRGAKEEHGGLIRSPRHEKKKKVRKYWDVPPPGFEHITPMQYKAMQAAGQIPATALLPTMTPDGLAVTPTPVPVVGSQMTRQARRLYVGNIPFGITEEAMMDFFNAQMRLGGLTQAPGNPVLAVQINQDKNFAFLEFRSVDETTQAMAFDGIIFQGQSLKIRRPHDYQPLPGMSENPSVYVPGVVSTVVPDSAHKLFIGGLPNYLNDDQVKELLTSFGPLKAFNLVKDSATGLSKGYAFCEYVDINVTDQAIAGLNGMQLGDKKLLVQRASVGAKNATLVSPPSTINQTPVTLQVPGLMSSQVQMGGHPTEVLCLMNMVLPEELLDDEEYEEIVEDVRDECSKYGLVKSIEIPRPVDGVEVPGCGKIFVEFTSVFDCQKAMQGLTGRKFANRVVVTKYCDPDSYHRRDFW
B1: sequence looked up; chain SLKVAPKVKATAAPAGAPPQPQDLEFTKLPNGLVIASLENYSPVSRIGLFIKAGSRYEDFSNLGTTHLLRLTSSLTTKGASSFKITRGIEAVGGKLSVTATRENMAYTVECLRGDVDILMEFLLNVTTAPEFRRWEVADLQPQLKIDKAVAFQNPQTHVIENLHAAAYRNALANPLYCPDYRIGKVTSEELHYFVQNHFTSARMALIGLGVSHPVLKQVAEQFLNMRGGLGLSGAKANYRGGEIREQNGDSLVHAAFVAESAVAGSAEANAFSVLQHVLGAGPHVKRGSNTTSHLHQAVAKATQQPFDVSAFNASYSDSGLFGIYTISQATAAGDVIKAAYNQVKTIAQGNLSNTDVQAAKNKLKAGYLMSVESSECFLEEVGSQALVAGSYMPPSTVLQQIDSVANADIINAAKKFVSGQKSMAASGNLGHTPFVDEL
B2: peripherin, human; sequence looked up; chain MSHHPSGLRAGFSSTSYRRTFGPPPSLSPGAFSYSSSSRFSSSRLLGSASPSSSVRLGSFRSPRAGAGALLRLPSERLDFSMAEALNQEFLATRSNEKQELQELNDRFANFIEKVRFLEQQNAALRGELSQARGQEPARADQLCQQELRELRRELELLGRERDRVQVERDGLAEDLAALKQRLEEETRKREDAEHNLVLFRKDVDDATLSRLELERKIESLMDEIEFLKKLHEEELRDLQVSVESQQVQQVEVEATVKPELTAALRDIRAQYESIAAKNLQEAEEWYKSKYADLSDAANRNHEALRQAKQEMNESRRQIQSLTCEVDGLRGTNEALLRQLRELEEQFALEAGGYQAGAARLEEELRQLKEEMARHLREYQELLNVKMALDIEIATYRKLLEGEESRISVPVHSFASLNIKTTVPEVEPPQDSHSRKTVLIKTIETRNGEVVTESQKEQRSELDKSSAHSY
B3: human hnRNP U; sequence looked up; chain SSSPVNVKKLKVSELKEELKKRRLSDKGLKAELMERLQAALDDEEAGGRPAMEPGNGSLDLGGDSAGRSGAGLEQEAAAGGDEEEEEEEEEEEGISALDGDQMELGEENGAAGAADSGPMEEEEAASEDENGDDQGFQEGEDELGDEEEGAGDENGHGEQQPQPPATQQQQPQQQRGAAKEAAGKSSGPTSLFAVTVAPPGARQGQQQAGGKKKAEGGGGGGRPGAPAAGDGKTEQKGGDKKRGVKRPREDHGRGYFEYIEENKYSRAKSPQPPVEEEDEHFDDTVVCLDTYNCDLHFKISRDRLSASSLTMESFAFLWAGGRASYGVSKGKVCFEMKVTEKIPVRHLYTKDIDIHEVRIGWSLTTSGMLLGEEEFSYGYSLKGIKTCNCETEDYGEKFDENDVITCFANFESDEVELSYAKNGQDLGVAFKISKEVLAGRPLFPHVLCHNCAVEFNFGQKEKPYFPIPEEYTFIQNVPLEDRVRGPKGPEEKKDCEVVMMIGLPGAGKTTWVTKHAAENPGKYNILGTNTIMDKMMVAGFKKQMADTGKLNTLLQRAPQCLGKFIEIAARKKRNFILDQTNVSAAAQRRKMCLFAGFQRKAVVVCPKDEDYKQRTQKKAEVEGKDLPEHAVLKMKGNFTLPEVAECFDEITYVELQKEEAQKLLEQYKEESKKALPPEKKQNTGSKKSNKNKSGKNQFNRGGGHRGRGGFNMRGGNFRGGAPGNRGGYNRRGNMPQRGGGGGGSGGIGYPYPRAPVFPGRGSYSNRGNYNRGGMPNRGNYNQNFRGRGNNRGYKNQSQGYNQWQQGQFWGQKPWSQHYHQGYY
B4: human alpha-actinin-1; sequence looked up; chain MDHYDSQQTNDYMQPEEDWDRDLLLDPAWEKQQRKTFTAWCNSHLRKAGTQIENIEEDFRDGLKLMLLLEVISGERLAKPERGKMRVHKISNVNKALDFIASKGVKLVSIGAEEIVDGNVKMTLGMIWTIILRFAIQDISVEETSAKEGLLLWCQRKTAPYKNVNIQNFHISWKDGLGFCALIHRHRPELIDYGKLRKDDPLTNLNTAFDVAEKYLDIPKMLDAEDIVGTARPDEKAIMTYVSSFYHAFSGAQKAETAANRICKVLAVNQENEQLMEDYEKLASDLLEWIRRTIPWLENRVPENTMHAMQQKLEDFRDYRRLHKPPKVQEKCQLEINFNTLQTKLRLSNRPAFMPSEGRMVSDINNAWGCLEQVEKGYEEWLLNEIRRLERLDHLAEKFRQKASIHEAWTDGKEAMLRQKDYETATLSEIKALLKKHEAFESDLAAHQDRVEQIAAIAQELNELDYYDSPSVNARCQKICDQWDNLGALTQKRREALERTEKLLETIDQLYLEYAKRAAPFNNWMEGAMEDLQDTFIVHTIEEIQGLTTAHEQFKATLPDADKERLAILGIHNEVSKIVQTYHVNMAGTNPYTTITPQEINGKWDHVRQLVPRRDQALTEEHARQQHNERLRKQFGAQANVIGPWIQTKMEEIGRISIEMHGTLEDQLSHLRQYEKSIVNYKPKIDQLEGDHQLIQEALIFDNKHTNYTMEHIRVGWEQLLTTIARTINEVENQILTRDAKGISQEQMNEFRASFNHFDRDHSGTLGPEEFKACLISLGYDIGNDPQGEAEFARIMSIVDPNRLGVVTFQAFIDFMSRETADTDTADQVMASFKILAGDKNYITMDELRRELPPDQAEYCIARMAPYTGPDSVPGALDYMSFSTALYGESDL
B5: human myosin-Ic; sequence looked up; chain MALQVELVPTGEIIRVVHPHRPCKLALGSDGVRVTMESALTARDRVGVQDFVLLENFTSEAAFIENLRRRFRENLIYTYIGPVLVSVNPYRDLQIYSRQHMERYRGVSFYEVPPHLFAVADTVYRALRTERRDQAVMISGESGAGKTEATKRLLQFYAETCPAPERGGAVRDRLLQSNPVLEAFGNAKTLRNDNSSRFGKYMDVQFDFKGAPVGGHILSYLLEKSRVVHQNHGERNFHIFYQLLEGGEEETLRRLGLERNPQSYLYLVKGQCAKVSSINDKSDWKVVRKALTVIDFTEDEVEDLLSIVASVLHLGNIHFAANEESNAQVTTENQLKYLTRLLSVEGSTLREALTHRKIIAKGEELLSPLNLEQAAYARDALAKAVYSRTFTWLVGKINRSLASKDVESPSWRSTTVLGLLDIYGFEVFQHNSFEQFCINYCNEKLQQLFIELTLKSEQEEYEAEGIAWEPVQYFNNKIICDLVEEKFKGIISILDEECLRPGEATDLTFLEKLEDTVKHHPHFLTHKLADQRTRKSLGRGEFRLLHYAGEVTYSVTGFLDKNNDLLFRNLKETMCSSKNPIMSQCFDRSELSDKKRPETVATQFKMSLLQLVEILQSKEPAYVRCIKPNDAKQPGRFDEVLIRHQVKYLGLLENLRVRRAGFAYRRKYEAFLQRYKSLCPETWPTWAGRPQDGVAVLVRHLGYKPEEYKMGRTKIFIRFPKTLFATEDALEVRRQSLATKIQAAWRGFHWRQKFLRVKRSAICIQSWWRGTLGRRKAAKRKWAAQTIRRLIRGFVLRHAPRCPENAFFLDHVRTSFLLNLRRQLPQNVLDTSWPTPPPALREASELLRELCIKNMVWKYCRSISPEWKQQLQQKAVASEIFKGKKDNYPQSVPRLFISTRLGTDEISPRVLQALGSEPIQYAVPVVKYDRKGYKPRSRQLLLTPNAVVIVEDAKVKQRIDYANLTGISVSSLSDSLFVLHVQRADNKQKGDVVLQSDHVIETLTKTALSANRVNSININQGSITFAGGPGRDGTIDFTPGSELLITKAKNGHLAVVAPRLNSR
UniProt P13393, sequence (whole entry, looked up): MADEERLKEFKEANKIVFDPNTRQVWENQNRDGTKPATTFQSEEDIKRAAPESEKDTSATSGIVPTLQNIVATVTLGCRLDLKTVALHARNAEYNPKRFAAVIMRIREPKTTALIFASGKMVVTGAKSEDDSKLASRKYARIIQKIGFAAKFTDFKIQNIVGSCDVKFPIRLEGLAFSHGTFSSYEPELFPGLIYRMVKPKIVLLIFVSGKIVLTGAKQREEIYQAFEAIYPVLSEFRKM

With `Peginesatide` the phosphorylation level was 12.7 fold (UT7/EPO; tyrosine phosphorylation, LC-MS/MS phosphoproteomics, GluC, refers to: SHIP2 tyrosine 1135; 10 nM, 15 min, together with: 10 U/mL EPO; baseline: vehicle).
The GFP-positive cells of `RTDPIPLSF` is reported as 0.504% (Jurkat expressing engineered TCR; NFAT-eGFP reporter, fluorescence microscopy; peptide; concentration not given, HLA-A*01:01 on EL4 cells).
For `epoetin alfa`, the mRNA level was 77.9 fold (UT7/EPO; RT-qPCR, refers to: SOCS3; concentration not given, 90 min, normalized to HPRT1; baseline: vehicle).
For `B1`, “log2 fold change” read 1.41 (CYB5R4 knockout human cells; PP4 interaction, 3xFLAG-PP4C IP-MS; concentration not given; baseline: CYB5R4 KO over parental).
For `RSDYIPLAY`, the GFP-positive cells was 0.497% (Jurkat expressing engineered TCR; NFAT-eGFP reporter, fluorescence microscopy; peptide; concentration not given, HLA-A*01:01 on EL4 cells).
For `B2 (peripherin, human)`, “log2 fold change” read -0.23 (CYB5R4 knockout human cells; PP4 interaction, 3xFLAG-PP4C IP-MS; concentration not given; baseline: CYB5R4 KO over parental).
With `Ac-LRKLRKRLLRDWLKAFYDKVAEKLKEAF-NH2 (N-acetyl, C-amide)` the inhibition was 75% (HUVEC; monocyte adhesion; peptide; 50 µg, together with: LPS).
With `UUUAGUUUU (ssRNA)` the Kd was 11200 nM (U2AF2; sequencing of bound RNA; RNA; motif only).
`B3 (human hnRNP U)`: “log2 fold change” -0.66 (CYB5R4 knockout human cells; PP4 interaction, 3xFLAG-PP4C IP-MS; concentration not given; baseline: CYB5R4 KO over parental).
For `PFVYLIRFHRFHRFHGGGSSSQLSRP`, the transfection efficiency was about 95% (HEK293T; circRNA delivery, refers to: mCherry; peptide; concentration not given, 48 h).
`YLEPVYPEY` has a GFP-positive cells of 0.48% (Jurkat expressing engineered TCR; NFAT-eGFP reporter, fluorescence microscopy; peptide; concentration not given, HLA-A*01:01 on EL4 cells).
`B4 (human alpha-actinin-1)`: “log2 fold change” 0.58 (CYB5R4 knockout human cells; PP4 interaction, 3xFLAG-PP4C IP-MS; concentration not given; baseline: CYB5R4 KO over parental).
For `CCAUUUUCU (ssRNA)`, the Kd was 1090 nM (U2AF2; sequencing of bound RNA; RNA; motif only).
The Kd of `TGGATCAATCGAGAATTCCGCGCAAGTGGTATGGATCAAGTCAATCGGTCC (dsDNA; 5'-amino-C6 primer)` is reported as 2.98 ± 0.38 nM (SPT15 full length assumed (Saccharomyces cerevisiae, UniProt P13393); array; double-stranded DNA, one strand shown; TBP alone).
With `ELEPIYLEY` the GFP-positive cells was 0.601% (Jurkat expressing engineered TCR; NFAT-eGFP reporter, fluorescence microscopy; peptide; concentration not given, HLA-A*01:01 on EL4 cells).
With `MTVCNASQRQAHAQATAVSL` the selectivity ratio was 50 ± 15 (MCF7; phage binding; peptide; baseline: targeting over control phage).
`ELEIVNYGY` gave a GFP-positive cells of 0.359% (Jurkat expressing engineered TCR; NFAT-eGFP reporter, fluorescence microscopy; peptide; concentration not given, HLA-A*01:01 on EL4 cells).
`B5 (human myosin-Ic)` — result for “log2 fold change”: -0.55 (CYB5R4 knockout human cells; PP6 interaction, 3xFLAG-PP6C IP-MS; concentration not given; baseline: CYB5R4 KO over parental).

Some of these lines once more:
`ELEIVNYGY` gave a GFP-positive cells of 0.359% (Jurkat expressing engineered TCR; NFAT-eGFP reporter, fluorescence microscopy; peptide; concentration not given, HLA-A*01:01 on EL4 cells).
`B5 (human myosin-Ic)` — result for “log2 fold change”: -0.55 (CYB5R4 knockout human cells; PP6 interaction, 3xFLAG-PP6C IP-MS; concentration not given; baseline: CYB5R4 KO over parental).
